Results from different studies.
Protocols differ between the studies behind these lines. Several values in a cell are separate wells, animals, samples, runs or records.
U2AF2: U2AF2 148-342 (Homo sapiens, UniProt P26368)
Chain of UniProt P26368 (whole entry, looked up): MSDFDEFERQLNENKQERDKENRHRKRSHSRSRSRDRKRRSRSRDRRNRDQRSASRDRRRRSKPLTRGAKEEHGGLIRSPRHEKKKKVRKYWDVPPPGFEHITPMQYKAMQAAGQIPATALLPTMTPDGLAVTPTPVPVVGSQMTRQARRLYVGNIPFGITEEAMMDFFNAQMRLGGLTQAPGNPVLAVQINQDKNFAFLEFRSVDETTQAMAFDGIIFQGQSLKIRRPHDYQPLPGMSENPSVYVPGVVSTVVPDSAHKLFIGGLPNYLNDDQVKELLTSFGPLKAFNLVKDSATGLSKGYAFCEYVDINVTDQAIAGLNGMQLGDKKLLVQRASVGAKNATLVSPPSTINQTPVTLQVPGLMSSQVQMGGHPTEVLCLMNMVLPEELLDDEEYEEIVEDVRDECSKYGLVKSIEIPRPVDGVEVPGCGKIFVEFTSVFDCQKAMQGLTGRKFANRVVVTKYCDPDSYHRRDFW
B1: racE T25N/S192A (Dictyostelium discoideum, UniProt Q23862); sequence looked up; chain MSEDQGSGATRVKLVVVGDGAVGKNCLLICYAQNDFPVDYVPTVFENYTATRKRGNEDIKVHLWDTAGQEEYDRLRPLSYPGADVVLLCFSTISQSSYEAIRDKWAPEVNHYIPDVPSILVGTKIDLREQQHPDPNSGKFEPITADMGISMQKQIKAKKYLEVSAKTRQGLEEVFSAAIEIVLESRGMDKKAQDGSSSASGVPSGDKPTKGKAGKKKSGCIIL
B2: cooS 1-639 C41S (Rhodospirillum rubrum, UniProt P31896); chain MTHHDCAHCSSDACATEMLNLAEANSIETAWHRYEKQQPQSGFGSAGLCCRICLKGPCRIDPFGEGPKYGVCGADRDTIVARHLVRMIAAGTAAHSEHGRHIALAMQHISQGELHDYSIRDEAKLYAIAKTLGVATEGRGLLAIVGDLAAITLGDFQNQDYDKPCAWLAASLTPRRVKRLGDLGLLPHNIDASVAQTMSRTHVGCDADPTNLILGGLRVAMADLDGSMLATELSDALFGTPQPVVSAANLGVMKRGAVNIAVNGHNPMLSDIICDVAADLRDEAIAAGAAEGINIIGICCTGHEVMMRHGVPLATNYLSQELPILTGALEAMVVDVQCIMPSLPRIAECFHTQIITTDKHNKISGATHVPFDEHKAVETAKTIIRMAIAAFGRRDPNRVAIPAFKQKSIVGFSAEAVVAALAKVNADDPLKPLVDNVVNGNIQGIVLFVGCNTTKVQQDSAYVDLAKSLAKRNVLVLATGCAAGAFAKAGLMTSEATTQYAGEGLKGVLSAIGTAAGLGGPLPLVMHMGSCVDNSRAVALATALANKLGVDLSDLPLVASAPECMSEKALAIGSWAVTIGLPTHVGSVPPVIGSQIVTKLVTETAKDLVGGYFIVDTDPKSAGDKLYAAIQERRAGLGL
B3: BcsB/BcsC TPR1-4 fused to BcsB (Escherichia coli); chain VEAAPTAQQQLLEQVRLGEATHREDLVQQSLYRLELIDPNNPDVVAARFRSLLRQGDIDGAQKQLDRLSQLAPSSNAYKSSRTTMLLSTPDGRQALQQARLQATTGHAEEAVASYNKLFNGAPPEGDIAVEYWSTVAKIPARRGEAINQLKRINADAPGGSGSGSGVQGADAPVVAQNGPSRDVKLTFAQIAPPPGSMVLRGINPNGSIEFGMRSDEVVTKAMLNLEYTPSPSLLPVQSQLKVYLNDELMGVLPVTKEQLGKKTLAQMPINPLFISDFNRVRLEFVGHYQDVCEKPASTTLWLDVGRSSGLDLTYQTLNVKNDLSHFPVPFFDPSDNRTNTLPMVFAGAPDVGLQQASAIVASWFGSRSGWRGQNFPVLYNQLPDRNAIVFATNDKRPDFLRDHPAVKAPVIEMINHPQNPYVKLLVVFGRDDKDLLQAAKGIAQGNILFRGESVVVNEVKPLLPRKPYDAPNWVRTDRPVTFGELKTYEEQLQSSGLEPAAINVSLNLPPDLYLMRSTGIDMDINYRYTMPPVKDSSRMDISLNNQFLQSFNLSSKQEANRLLLRIPVLQGLLDGKTDVSIPALKLGATNQLRFDFEYMNPMPGGSVDNCITFQPVQNHVVIGDDSTIDFSKYYHFIPMPDLRAFANAGFPFSRMADLSQTITVMPKAPNEAQMETLLNTVGFIGAQTGFPAINLTVTDDGSTIQGKDADIMIIGGIPDKLKDDKQIDLLVQATESWVKTPMRQTPFPGIVPDESDRAAETRSTLTSSGAMAAVIGFQSPYNDQRSVIALLADSPRGYEMLNDAVNDSGKRATMFGSVAVIRESGINSLRVGDVYYVGHLPWFERVWYALANHPILLAVLAAISVILLAWVLWRLLRIISRRRLNPDNE
B4: Xpnpep2 24-649 (Rattus norvegicus, UniProt Q99MA2); sequence looked up; chain GPESLGREDVRDCSTNPPRLPVTAVNTTMRLAALRQQMEKSNLSAYIIPDTDAHMSEYIGKHDERRAWISGFTGSAGTAVVTKKKAAVWTDSRYWTQAERQMDCNWELHKEVSISSIVAWILAEVPDGENVGFDPFLFSVGSWENYDQELQDSNRHLLSITTNLVDVAWGSERPPVPSQPIYALPKEFTGSTWQEKVSAIRSYMQNHTMAPTGVLLSALDETAWLFNLRSSDIPYNPFFYSYTLLTDSSIRLFVNKSRFSLETLQYLNTNCTLPMCVQLEDYSQIRDGVKAYASGNVKILIGISYTTYGVYDVIPKEKLVTETYSPVMLIKAVKNSKEQALLKASHVRDAVAVIQYLVWLEKNVPKGTVDEFSGAEHIDQLRRNENFSSGPSFETISASGLNAALAHYSPTKELHRKLSLDEMYLVDSGGQYWDGTTDITRTVHWGTPTAFQKEAYTRVLMGNIDLSRLVFPAATSGRVVEAFARRALWEVGLNYGHGTGHGIGNFLCVHEWPVGFQYNNMAMAKGMFTSIEPGYYQDGEFGIRLEDVALVVEAKTKYPGTYLTFELVSFVPYDRNLIDVSLLSPEQLQYLNRYYQTIRENIGPELQRRQLLEEFAWLERHTEPLS
B5: Tomm70 (Mus musculus, UniProt Q9CZW5); sequence looked up; chain MAASKPIEAAMAAAAAPGSGNGVGGGGGTAGPGSGAGTLPRWHVALAIGAPLLLGAGAMYLWSRRRRRREAGGRGDASGLKRNSERKTPEGRASPALGSGHHDGSGDSLEMSSLDRAQAAKNKGNKYFKAGKYEQAIQCYTEAISLCPTEKNVDLSTFYQNRAAAFEQLQKWKEVAQDCTKAVELNPKYVKALFRRAKAHEKLDNKKECLEDVTAVCILEGFQNEQSMLLADKVLKLLGKENAKEKYKNREPLMPSPQFIKSYFSSFTDDIISQPMLKGEKSDEDKDKEGEALEVKENSGYLKAKQYMEEENYDKIISECSKEIDAQGKYMAEALLLRATFYLLIGSANAAKPDLDKVISLKEANVKLRANALIKRGTMCMQQQQPMLSTQDFNMAAEIDPMNSDVYHHRGQLKILLDLVEEAVADFDACIRLRPKFALAQAQKCFALYRQAYTANNSSQVQAAMKGFEEIIKKFPRCAEGYALYAQALTDQQQFGKADEMYDKCIDLEPDNATTYVHKGLLQLQWKQDLDKGLELISKAIEIDNKCDFAYETMGTIEVQRGNMEKAIDMFNKAINLAKSEMEMAHLYSLCDAAHAQTEVAKKYGLKPPTL
B6: TMEM65 (Homo sapiens, UniProt Q6PI78); sequence looked up; chain PMEALNTAQGARDFIYSLHSTERSCLLKELHRFESIAIAQEKLEAPPPTPGQLRYVFIHNAIPFIGFGFLDNAIMIVAGTHIEMSIGIILGISTMAAAALGNLVSDLAGLGLAGYVEALASRLGLSIPDLTPKQVDMWQTRLSTHLGKAVGVTIGCILGMFPLIFFGGGEEDEKLETKS
B7: Pah (Rattus norvegicus, UniProt P04176); sequence looked up; chain MAAVVLENGVLSRKLSDFGQETSYIEDNSNQNGAISLIFSLKEEVGALAKVLRLFEENDINLTHIESRPSRLNKDEYEFFTYLDKRTKPVLGSIIKSLRNDIGATVHELSRDKEKNTVPWFPRTIQELDRFANQILSYGAELDADHPGFKDPVYRARRKQFADIAYNYRHGQPIPRVEYTEEEKQTWGTVFRTLKALYKTHACYEHNHIFPLLEKYCGFREDNIPQLEDVSQFLQTCTGFRLRPVAGLLSSRDFLGGLAFRVFHCTQYIRHGSKPMYTPEPDICHELLGHVPLFSDRSFAQFSQEIGLASLGAPDEYIEKLATIYWFTVEFGLCKEGDSIKAYGAGLLSSFGELQYCLSDKPKLLPLELEKTACQEYSVTEFQPLYYVAESFSDAKEKVRTFAATIPRPFSVRYDPYTQRVEVLDNTQQLKILADSINSEVGILCNALQKIKS
B8: REC107 138-224 (Saccharomyces cerevisiae, UniProt P21651); chain KTKSDSSYRQVLVEEISRYNSKITRHVTNKQHETEKSMRCTQEMLFNVGSQLEDVHKVLLSLSKDMHSLQTRQTALEMAFREKADHA
B9: dszC (Rhodococcus erythropolis, UniProt P54998); sequence looked up; chain MTLSPEKQHVRPRDAADNDPVAVARGLAEKWRATAVERDRAGGSATAEREDLRASGLLSLLVPREYGGWGADWPTAIEVVREIAAADGSLGHLFGYHLTNAPMIELIGSQEQEEHLYTQIAQNNWWTGNASSENNSHVLDWKVSATPTEDGGYVLNGTKHFCSGAKGSDLLFVFGVVQDDSPQQGAIIAAAIPTSRAGVTPNDDWAAIGMRQTDSGSTDFHNVKVEPDEVLGAPNAFVLAFIQSERGSLFAPIAQLIFANVYLGIAHGALDAAREYTRTQARPWTPAGIQQATEDPYTIRSYGEFTIALQGADAAAREAAHLLQTVWDKGDALTPEDRGELMVKVSGVKALATNAALNISSGVFEVIGARGTHPRYGFDRFWRNVRTHSLHDPVSYKIADVGKHTLNGQYPIPGFTS
B10: mycE 1-399 (Micromonospora griseorubida, UniProt Q83WF2); chain MTAQTEFDEATVQDVVRLAGGHDSELRELTQKYDPAMISRLLVAEILSRCPPPSNDTPVLVELAIVHGSERFRHFLRVVRDSPIRPVGADEGFVGMLVEYELTELLRELFGVTHERPAGVRGTKLFPYLTDDEEAVEQIGTYLLAAQQGTEAVLAGCGSRKPDLSELSSRYFTPKFGFLHWFTPHYDRHFRDYRNQQVRVLEIGVGGYKHPEWGGGSLRMWKSFFPRGQIYGLDIMDKSHVDELRIRTIQGDQNDAEFLDRIARRYGPFDIVIDDGSHINAHVRTSFAALFPHVRPGGLYVIEDMWTAYWPGFGGQADPQECSGTSLGLLKSLIDAIQHQELPSDPNRSPGYVDRNIVGLHVYHNVAFVEKGRNDEGGIPTWIPRDFESLVQASSGGAT
Chain of UniProt P39760 (whole entry, looked up): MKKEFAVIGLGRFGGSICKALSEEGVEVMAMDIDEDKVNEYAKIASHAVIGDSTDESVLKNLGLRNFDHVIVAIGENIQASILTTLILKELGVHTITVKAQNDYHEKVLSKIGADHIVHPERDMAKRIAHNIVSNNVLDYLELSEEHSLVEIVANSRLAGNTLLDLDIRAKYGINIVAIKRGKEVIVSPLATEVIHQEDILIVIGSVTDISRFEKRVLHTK
Chain of UniProt P48547 (whole entry, looked up): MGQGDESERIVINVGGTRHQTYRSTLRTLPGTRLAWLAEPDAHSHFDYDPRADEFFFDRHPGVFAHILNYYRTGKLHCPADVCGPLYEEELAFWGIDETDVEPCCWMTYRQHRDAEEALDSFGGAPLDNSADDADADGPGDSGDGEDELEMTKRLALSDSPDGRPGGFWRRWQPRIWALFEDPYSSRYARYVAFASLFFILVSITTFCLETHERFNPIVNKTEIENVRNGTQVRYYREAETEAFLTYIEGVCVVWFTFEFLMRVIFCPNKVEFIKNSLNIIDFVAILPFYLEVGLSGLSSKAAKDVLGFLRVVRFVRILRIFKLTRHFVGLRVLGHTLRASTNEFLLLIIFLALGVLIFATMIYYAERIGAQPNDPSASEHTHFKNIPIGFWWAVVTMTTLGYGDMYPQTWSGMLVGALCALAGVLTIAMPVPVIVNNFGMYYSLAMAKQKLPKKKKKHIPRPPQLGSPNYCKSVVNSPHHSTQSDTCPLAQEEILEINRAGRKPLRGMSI
Chain of UniProt P07196 (whole entry, looked up): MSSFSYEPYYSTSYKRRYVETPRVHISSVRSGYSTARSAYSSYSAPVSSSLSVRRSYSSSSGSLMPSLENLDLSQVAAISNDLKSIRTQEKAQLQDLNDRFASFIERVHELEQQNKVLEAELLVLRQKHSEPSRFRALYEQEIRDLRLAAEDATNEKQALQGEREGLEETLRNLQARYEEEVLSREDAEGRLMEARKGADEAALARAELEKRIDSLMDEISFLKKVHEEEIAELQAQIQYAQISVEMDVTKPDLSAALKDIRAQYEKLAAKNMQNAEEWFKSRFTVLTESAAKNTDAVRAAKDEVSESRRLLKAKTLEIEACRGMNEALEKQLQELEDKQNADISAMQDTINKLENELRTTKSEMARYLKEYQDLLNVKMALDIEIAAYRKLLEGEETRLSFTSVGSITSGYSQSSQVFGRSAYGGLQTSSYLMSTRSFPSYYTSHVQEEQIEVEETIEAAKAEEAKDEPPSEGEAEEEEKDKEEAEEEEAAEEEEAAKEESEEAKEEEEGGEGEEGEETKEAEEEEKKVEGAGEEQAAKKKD
Chain of UniProt P40925 (whole entry, looked up): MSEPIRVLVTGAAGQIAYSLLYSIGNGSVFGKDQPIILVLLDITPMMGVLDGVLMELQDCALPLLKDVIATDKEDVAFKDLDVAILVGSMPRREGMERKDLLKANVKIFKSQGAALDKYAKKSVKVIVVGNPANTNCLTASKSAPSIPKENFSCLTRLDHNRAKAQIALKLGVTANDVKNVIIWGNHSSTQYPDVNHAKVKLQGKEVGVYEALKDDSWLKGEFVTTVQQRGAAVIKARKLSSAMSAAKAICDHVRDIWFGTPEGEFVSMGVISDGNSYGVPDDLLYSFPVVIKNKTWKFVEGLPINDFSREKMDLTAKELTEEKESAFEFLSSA

For `B1 (racE T25N/S192A)`, “subunits per oligomer” read 2 (itself; SEC).
`B2 (cooS 1-639 C41S)`: “subunits per oligomer” 2 (itself; SEC-MALS).
For `NEFL (Homo sapiens, UniProt P07196)`, “subunits per oligomer” read 2 (itself; native MS).
Under “subunits per oligomer”, `B3 (BcsB/BcsC TPR1-4 fused to BcsB)` is recorded as 3 and 4 (itself; cryo-EM).
`RDVEMEEMIEQLQEKVHELERQNEVLKNRLISAKQQLQVQG (Rpgrip1l 104-144 (Mus musculus, UniProt Q8CG73); sequence looked up)`: “subunits per oligomer” 2 (itself; SEC-MALS).
`B4 (Xpnpep2 24-649)` — result for “subunits per oligomer”: 2 (itself; native MS).
`KtrC (Bacillus subtilis, UniProt P39760)` — result for “subunits per oligomer”: 8 (itself; crystal structure).
`GGGGGACUA (ssRNA)` gave a Kd of 4.96 µM (U2AF2; sequencing of bound RNA; RNA; motif only).
`NRSSKYLDEAYEEMVNIIEYNKELQAKVNILRRQLAELETEDGMQESP (MTMR9 502-549 (Homo sapiens, UniProt Q96QG7); sequence looked up)` — result for “subunits per oligomer”: 3 (itself; cross-linking).
`B5 (Tomm70)` — result for “subunits per oligomer”: 2 (itself; native PAGE).
Under “subunits per oligomer”, `B6 (TMEM65)` is recorded as 2 (itself; cross-linking).
`KCNC1 (Homo sapiens, UniProt P48547)` — result for “subunits per oligomer”: 4 (itself; cryo-EM).
Under “subunits per oligomer”, `B7 (Pah)` is recorded as 4 (itself; SEC).
`B8 (REC107 138-224)` — result for “subunits per oligomer”: 4 (itself; SEC-SAXS).
`AUUUUCCUA (ssRNA)` gave a Kd of 6.19 µM (U2AF2; sequencing of bound RNA; RNA; motif only).
`MDH1, N-terminal acetylation (Homo sapiens, UniProt P40925)`: “subunits per oligomer” 2 (itself; native MS).
Under “subunits per oligomer”, `B9 (dszC)` is recorded as 4 (itself; SEC).
Under “subunits per oligomer”, `B10 (mycE 1-399)` is recorded as 4 (itself; SEC).

For quick reference, copied from above:
Under “subunits per oligomer”, `B7 (Pah)` is recorded as 4 (itself; SEC).
`B8 (REC107 138-224)` — result for “subunits per oligomer”: 4 (itself; SEC-SAXS).
`RDVEMEEMIEQLQEKVHELERQNEVLKNRLISAKQQLQVQG (Rpgrip1l 104-144 (Mus musculus, UniProt Q8CG73); sequence looked up)`: “subunits per oligomer” 2 (itself; SEC-MALS).
